Measurements collected from several papers.
Each line is one published result; not all experiments were run side by side. Numbers after ± are the reported error. ≈ marks a conversion by molar mass, not a printed value.

Compound = CC[C@H](C)[C@H](NC(=O)[C@H](CCCNC(=N)N)NC(=O)[C@H](CCC(N)=O)NC(=O)[C@H](CC(=O)O)NC(=O)[C@H](CC(C)C)NC(=O)[C@H](CC(C)C)NC(=O)[C@H](CC(N)=O)NC(=O)[C@H](Cc1ccccc1)NC(=O)[C@H](CC(=O)O)NC(=O)[C@@H](NC(=O)[C@@H](NC(=O)[C@H](CC(N)=O)NC(=O)CNC(=O)[C@H](CO)NC(C)=O)C(C)C)[C@@H](C)CC)C(=O)N[C@H](C(=O)N[C@@H](Cc1c[nH]c2ccccc12)C(=O)N[C@@H](CCC(N)=O)C(=O)N[C@@H](CC(N)=O)C(=O)N[C@@H](Cc1c[nH]c2ccccc12)C(=O)N[C@@H](Cc1ccc(O)cc1)C(=O)N[C@@H](C)C(N)=O)[C@@H](C)CC; assay = measured: HA-19 tetramer; test system = antigen-experienced tetramer+ CD4 T cells, healthy adults, HLA-DRB1*0101; conditions = dose not given; measurement = α4β7− CCR9+ cells; value = 0%
Compound = CC[C@H](C)[C@H](NC(=O)[C@H](C)NC(=O)CNC(=O)[C@@H](N)CCSC)C(=O)N[C@@H](C)C(=O)N[C@@H](CCCCN)C(=O)N[C@@H](CC(C)C)C(=O)N[C@H](C(=O)N[C@@H](C)C(=O)N[C@@H](CCCCN)C(=O)N[C@@H](Cc1ccccc1)C(=O)NCC(=O)N[C@@H](Cc1c[nH]c2ccccc12)C(=O)N1CCC[C@H]1C(=O)N[C@@H](CCCNC(=N)N)C(=O)N[C@H](C(=O)N[C@@H](CCCCN)C(=O)N[C@@H](CCCCN)C(=O)N[C@@H](Cc1ccccc1)C(=O)N[C@@H](Cc1ccc(O)cc1)C(=O)N[C@@H](CCCCN)C(=O)N[C@@H](CCC(N)=O)C(=O)N[C@H](C(=O)N[C@@H](CCSC)C(=O)N[C@@H](CCC(N)=O)C(=O)N[C@@H](Cc1ccccc1)C(=O)N[C@H](C(=O)NCC(=O)N[C@@H](CCC(N)=O)C(=O)NCC(=O)N[C@@H](Cc1c[nH]c2ccccc12)C(=O)N[C@H](C(=O)N[C@H](C(=O)N[C@@H](CC(=O)O)C(=O)N[C@@H](CCC(N)=O)C(=O)N[C@H](C(=O)N[C@@H](CCC(=O)O)C(=O)N[C@@H](CCCCN)C(=O)N[C@@H](Cc1c[nH]c2ccccc12)C(=O)N[C@@H](CC(C)C)C(=O)N[C@@H](CCCCN)C(=O)N[C@@H](CCCNC(=N)N)C(=O)N[C@@H](Cc1c[nH]cn1)C(=O)O)[C@@H](C)CC)[C@@H](C)CC)[C@@H](C)O)[C@@H](C)CC)[C@@H](C)CC)[C@@H](C)CC)C(C)C; test system = PG/PE 1:1 liposomes; conditions = MIC; how to read = relative to: Triton X-100; measurement = calcein release; value = 33.4%
Compound = CC[C@H](C)[C@H](NC(=O)[C@H](Cc1c[nH]c2ccccc12)NC(=O)[C@H](CCCNC(=N)N)NC(=O)[C@H](CCCCN)NC(=O)[C@H](CC(C)C)NC(=O)[C@H](CC(=O)O)NC(=O)[C@H](Cc1ccccc1)NC(=O)[C@H](C)NC(=O)[C@H](Cc1ccc(O)cc1)NC(=O)[C@H](CC(N)=O)NC(=O)[C@H](Cc1ccc(O)cc1)NC(=O)[C@H](CCCNC(=N)N)NC(=O)[C@H](Cc1ccc(O)cc1)NC(=O)[C@H](Cc1ccc(O)cc1)NC(=O)[C@@H](NC(=O)[C@H](CC(C)C)NC(=O)[C@H](C)NC(=O)[C@H](CC(N)=O)NC(=O)[C@H](Cc1ccc(O)cc1)NC(C)=O)[C@@H](C)CC)C(=O)N[C@@H](Cc1ccc(O)cc1)C(=O)N[C@@H](CC(C)C)C(N)=O; assay = measured: HA-51 tetramer; test system = antigen-experienced tetramer+ CD4 T cells, healthy adults, HLA-DRB1*0101; conditions = dose not given; measurement = α4β7− CCR9+ cells; value = 8.33%
Compound = Cc1cc(O)cc(C)c1CC(N)C(=O)NC1CCNc2c(F)cc(Cc3ccccc3)cc21 (stereo not shown); assay = warm water tail withdrawal; test system = male C57BL/6 mouse; conditions = ip, 1, 3.2, 10 mg/kg cumulative; measurement = antinociception; value = inactive
Compound = CCS(=O)(=O)Nc1cc(-c2cn(C)c3c(=O)[nH]ccc23)cc2c1ccn2C(C)(c1ccccn1)c1ccccn1; test system = KPPC mice, aggressive PDAC; conditions = intraperitoneal, 5 mg/kg, 552 h, daily, late intervention; measurement = median survival; value = 50 days
Compound = CC[C@H](C)[C@H](NC(=O)[C@@H](NC(=O)[C@H](CC(=O)O)NC(C)=O)[C@@H](C)O)C(=O)N[C@@H](CCCNC(=N)N)C(=O)N[C@@H](CC(C)C)C(=O)N[C@@H](CC(C)C)C(=O)N[C@@H](Cc1ccccc1)C(=O)N[C@@H](CCC(N)=O)C(=O)N[C@@H](CC(C)C)C(=O)N[C@@H](CCSC)C(=O)N[C@@H](CCCNC(=N)N)C(=O)N1CCC[C@H]1C(=O)N1CCC[C@H]1C(=O)N[C@@H](CC(N)=O)C(=O)N[C@@H](CCSC)C(=O)N[C@H](C(=O)N1CCC[C@H]1C(=O)N[C@@H](C)C(=O)N[C@H](C(=O)N[C@@H](CC(N)=O)C(=O)N[C@@H](C)C(N)=O)C(C)C)[C@@H](C)O; assay = measured: HA-02 tetramer; test system = antigen-experienced tetramer+ CD4 T cells, healthy adults, HLA-DRB1*0101; conditions = dose not given; measurement = α4β7+ CCR9+ cells; value = 26.7%
Compound = O=C(O)CCn1c(=O)oc2cc(Cl)c(Cl)cc21; test system = rat, plasma; conditions = dose not given; measurement = free tryptophan level; value = 42 µM
Compound = C[C@]12CC[C@H](O)CC1CCC1C2[C@H](O)C(=O)[C@]2(C)[C@@H](c3ccc(=O)oc3)CC[C@]12O (stereo partly shown); assay = sulfation, substrate; test system = guinea pig liver cytosol; measurement = Vmax; value = 0.017 ± 0.001 nmol/min/mg
Compound = CCCCCCCCCCCCCCCC(=O)N[C@@H](CCC(=O)NCCOCCOCCC(=O)NCCOCCOCCC(=O)NCCCC[C@H](NC(=O)[C@H](CC(=O)O)NC(=O)[C@H](CC(C)C)NC(=O)[C@H](Cc1ccc(O)cc1)NC(=O)[C@H](CCCCN)NC(=O)[C@H](CO)NC(=O)[C@H](Cc1ccc(O)cc1)NC(=O)[C@H](CC(=O)O)NC(=O)[C@H](CO)NC(=O)[C@@H](NC(=O)[C@H](Cc1ccccc1)NC(=O)[C@@H](NC(=O)CNC(=O)[C@H](CCC(N)=O)NC(=O)[C@@H](CO)NC(=O)[C@@H](N)Cc1c[nH]cn1)[C@@H](C)O)[C@@H](C)O)C(=O)N[C@@H](CCCNC(=N)N)C(=O)N[C@@H](CCCNC(=N)N)C(=O)N[C@@H](C)C(=O)N[C@@H](CCC(N)=O)C(=O)N[C@@H](CC(=O)O)C(=O)N[C@@H](Cc1ccccc1)C(=O)N[C@H](C(=O)N[C@@H](CCC(N)=O)C(=O)N[C@@H](Cc1c[nH]c2ccccc12)C(=O)N[C@@H](CC(C)C)C(=O)N[C@@H](CC(C)C)C(=O)N[C@@H](CC(N)=O)C(=O)N[C@H](C(=O)NCC(=O)NCC(=O)N1CCC[C@H]1C(=O)N[C@@H](CO)C(=O)N[C@@H](CO)C(=O)NCC(=O)N[C@@H](C)C(=O)N1CCC[C@H]1C(=O)N1CCC[C@H]1C(=O)N1CCC[C@H]1C(=O)N[C@@H](CO)C(N)=O)[C@@H](C)O)C(C)C)C(=O)O; assay = flow cytometry; test system = Schistosoma japonicum-infected mice, liver; conditions = dose not given; measurement = liver macrophages and Tregs; value = decreased
Compound = CC(C)C[C@H](NC(=O)[C@H](C)NC(=O)CNC(=O)[C@H](CO)NC(=O)CNC(=O)[C@H](CCCNC(=N)N)NC(=O)[C@H](CCCNC(=N)N)NC(=O)[C@H](CCCNC(=N)N)NC(=O)[C@H](CCC(N)=O)NC(=O)[C@H](CCCNC(=N)N)NC(=O)[C@H](CCCNC(=N)N)NC(=O)[C@H](CCCCN)NC(=O)[C@H](CCCCN)NC(=O)[C@H](CCCNC(=N)N)NC(=O)CNC(=O)[C@@H](N)Cc1ccc(O)cc1)C(=O)N[C@@H](CO)C(=O)N[C@H](C(=O)N[C@@H](CCC(=O)O)C(=O)N[C@@H](CCCNC(=N)N)C(=O)O)[C@@H](C)O; assay = inhibitor; test system = isolated rat heart; conditions = concentration not given, ischemia/reperfusion; measurement = STAT phosphorylation; value = no inhibition
Compound = CC[C@H](C)[C@H](NC(=O)[C@H](CCCCN)NC(=O)CNC(=O)[C@H](CC(C)C)NC(=O)[C@@H](NC(=O)[C@H](C)NC(=O)[C@H](CCCCN)NC(=O)CNC(=O)[C@H](C)NC(=O)CNC(=O)[C@H](CCCCN)NC(=O)[C@H](CCSC)NC(=O)[C@H](CCCCN)NC(=O)[C@@H](NC(=O)[C@H](Cc1c[nH]c2ccccc12)NC(=O)[C@H](CC(C)C)NC(=O)[C@H](CCC(N)=O)NC(=O)[C@H](CCCCN)NC(=O)[C@H](CC(C)C)NC(=O)[C@@H](N)CC(C)C)[C@@H](C)O)C(C)C)C(=O)N[C@@H](CCCCN)C(=O)NCC(=O)N[C@@H](CC(C)C)C(=O)N[C@@H](CC(C)C)C(=O)O; assay = calcein release; test system = PC-containing vesicles, 200 µM lipid; conditions = 15 µM, 1 h; how to read = relative to: Triton X-100; measurement = calcein leakage; value = ~15%
Compound = COC[C@@H](NC(C)=O)C(=O)NCc1ccc(OCc2cccc(Cl)c2)cc1; assay = formalin test, phase II; test system = mouse; conditions = ip, 5.0 mg/kg; how to read = relative to: vehicle; measurement = licking time; value = 72%
Compound = CCN(Cc1ccccc1)C(=O)CCc1nc(CN2CCN(C(=O)Cc3ccc(OC)c(OC)c3)CC2)no1; assay = current clamp; test system = L4-L6 DRG neurons, rat CCI model; conditions = 3 µM; measurement = resting membrane potential; value = -67.5 ± 2.69 mV
Compound = O=C(O)/C=C/c1cc(O)cc(O)c1; assay = ABTS scavenging; measurement = IC50; value = 67 mg/L (≈ 372 µM)
Compound = Cc1ccc(/C=C/C(=O)O)cc1-c1cc2c(cc1C)C(C)(C)CCC2(C)C; assay = RNA sequencing, measured: Lrrc4c mRNA; test system = rat, brain; conditions = dose not given, 24 h, single dose; how to read = relative to: vehicle; measurement = log2 fold change; value = -0.5
Compound = CS(C)(=O)=Nc1ccc(-c2ccc(-c3nc4cc(O[C@@H]5CO[C@H]6[C@@H]5OC[C@H]6O)[nH]c4cc3F)cc2)cc1; test system = ob/ob mouse, AMLN diet NASH model; conditions = oral, 5 mg/kg daily, 8 weeks; how to read = relative to: vehicle; measurement = plasma triglycerides; value = no effect
Compound = CC(C)C[C@@H]1NC(=O)[C@@H](Cc2c[nH]c3ccccc23)NC(=O)[C@H](CCCNC(=N)N)NC(=O)[C@@H](CCC(=O)O)NC(=O)[C@H](CCC(N)=O)NC(=O)[C@@H](CCC(=O)O)NC(=O)[C@H](CCCNC(=N)N)NC(=O)[C@@H](Cc2c[nH]c3ccccc23)NC1=O; test system = mouse BALB/c; conditions = intraperitoneal, 20 mg/kg; measurement = duration of effect; value = ≤ 8 h
Compound = Cc1cc(O)cc(C)c1CC(N)C(=O)NC1CCNc2c1cc(Cc1ccccc1)cc2C(F)(F)F (stereo not shown); assay = warm water tail withdrawal; test system = male C57BL/6 mouse; conditions = ip, 1, 3.2, 10 mg/kg cumulative; measurement = antinociception; value = inactive
Compound = CCCCc1ccc(S(=O)(=O)N2CC2C(=O)OC)cc1 (stereo not shown); assay = arterial thrombus formation, electrical stimulation; test system = rat, carotid artery thrombosis model; measurement = effective dose; value = 0.05 µmol/kg
Compound = COC[C@@H](NC(C)=O)C(=O)NCc1ccc(OCc2ccc(OC(F)(F)F)cc2)cc1; assay = formalin test, phase I; test system = mouse; conditions = ip, 8.0 mg/kg; how to read = relative to: vehicle; measurement = licking time; value = 66%
Compound = CC(C)C[C@@H]1NC(=O)[C@H](C(C)C)NC(=O)[C@H](CO)NC(=O)CNC(=O)CNC(=O)[C@H](CCCNC(=N)N)NC(=O)[C@@H]2CCCN2C(=O)[C@@H](NC(=O)CC[C@H](NC(=O)c2ccc(N(C)Cc3cnc4nc(N)nc(N)c4n3)cc2)C(=O)O)C(C)(C)SSC[C@@H](C(=O)O)NC(=O)CNC(=O)[C@H]([C@@H](C)O)NC(=O)[C@H](C(C)C)NC1=O; test system = rat adjuvant arthritis; conditions = iv, 1 mg/kg once daily, day 14; measurement = spleen weight; value = 0.403 ± 0.0202 g
Compound = CSCCNC(=O)CCC(C)C1CCC2C3C(O)CC4CC(O)CCC4(C)C3CCC12C (stereo not shown); test system = wild type mice, faeces; conditions = dose not given, 14 days; how to read = relative to: vehicle; measurement = faecal bile acids; value = increased

Excerpt of the above:
Compound = CC[C@H](C)[C@H](NC(=O)[C@H](Cc1c[nH]c2ccccc12)NC(=O)[C@H](CCCNC(=N)N)NC(=O)[C@H](CCCCN)NC(=O)[C@H](CC(C)C)NC(=O)[C@H](CC(=O)O)NC(=O)[C@H](Cc1ccccc1)NC(=O)[C@H](C)NC(=O)[C@H](Cc1ccc(O)cc1)NC(=O)[C@H](CC(N)=O)NC(=O)[C@H](Cc1ccc(O)cc1)NC(=O)[C@H](CCCNC(=N)N)NC(=O)[C@H](Cc1ccc(O)cc1)NC(=O)[C@H](Cc1ccc(O)cc1)NC(=O)[C@@H](NC(=O)[C@H](CC(C)C)NC(=O)[C@H](C)NC(=O)[C@H](CC(N)=O)NC(=O)[C@H](Cc1ccc(O)cc1)NC(C)=O)[C@@H](C)CC)C(=O)N[C@@H](Cc1ccc(O)cc1)C(=O)N[C@@H](CC(C)C)C(N)=O; assay = measured: HA-51 tetramer; test system = antigen-experienced tetramer+ CD4 T cells, healthy adults, HLA-DRB1*0101; conditions = dose not given; measurement = α4β7− CCR9+ cells; value = 8.33%
Compound = C[C@]12CC[C@H](O)CC1CCC1C2[C@H](O)C(=O)[C@]2(C)[C@@H](c3ccc(=O)oc3)CC[C@]12O (stereo partly shown); assay = sulfation, substrate; test system = guinea pig liver cytosol; measurement = Vmax; value = 0.017 ± 0.001 nmol/min/mg
Compound = CS(C)(=O)=Nc1ccc(-c2ccc(-c3nc4cc(O[C@@H]5CO[C@H]6[C@@H]5OC[C@H]6O)[nH]c4cc3F)cc2)cc1; test system = ob/ob mouse, AMLN diet NASH model; conditions = oral, 5 mg/kg daily, 8 weeks; how to read = relative to: vehicle; measurement = plasma triglycerides; value = no effect
